Assay results of several laboratories.
A part holds a random share of what one study measured. Changes are numbered by the printed parent chain.

Set 1 — target: CCNE2, cyclin fold, Cln2 fusion (human); method: yeast growth competition, sequencing; matrix: yeast; notes: strong parent motif; relative to: not given; reading: higher = stronger binding
Parent: RBL2 docking peptide (human); STTRRRLFVENDS
| Change | normalised enrichment score |
| --- | --- |
| STTRRRHFVENDS [L7H] | 0.0661 |
| STTRRRLFVENKS [D12K] | 3.81 |
| STTMRRLFVENDS [R4M] | 0.887 |
| STTQRRLFVENDS [R4Q] | 0.656 |
| SITRRRLFVENDS [T2I] | 2.96 |
| STTRRRWFVENDS [L7W] | -0.0335 |
| KTTRRRLFVENDS [S1K] | 4.69 |
| STWRRRLFVENDS [T3W] | 4.3 |
| STTRRRLFTENDS [V9T] | 4.52 |
| SQTRRRLFVENDS [T2Q] | 4.44 |
| STTRRRLFRENDS [V9R] | 2.67 |
| SRTRRRLFVENDS [T2R] | 4.59 |
| STTRTRLFVENDS [R5T] | 1.84 |

Set 2 — method: DHFR PCA, deep sequencing; matrix: yeast; added: (+)-ABA 4.8 µM; relative to: wild-type fitted maximum; reading: higher = stronger binding
Target: ABI1, truncated, D143A, DHFR fusion (Arabidopsis thaliana)
Notes: methotrexate growth selection, single substitutions
Parent: PYL1, truncated, DHFR fusion (Arabidopsis thaliana); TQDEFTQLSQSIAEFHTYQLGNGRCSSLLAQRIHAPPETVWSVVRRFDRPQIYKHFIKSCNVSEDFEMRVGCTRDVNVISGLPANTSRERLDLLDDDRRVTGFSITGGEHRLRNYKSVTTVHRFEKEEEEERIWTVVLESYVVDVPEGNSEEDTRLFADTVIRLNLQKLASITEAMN
| Change | relative binding score |
| --- | --- |
| L91V | -2.28% |
| L20K | 77.7% |
| N77M | 76.2% |
| D144C | 5.57% |
| E151L | 61.2% |
| A13G | 62% |
| S27H | 62.4% |
| L166C | -1.5% |
| T160R | 18.6% |
| T135E | -13.7% |
| N149L | 5.06% |
| R99F | 87.6% |
| T119W | -8.28% |

Set 3 — method: protein binding microarray; form: double-stranded DNA, one strand shown; matrix: in vitro; concentration: not given; relative to: not given; reading: higher = stronger binding
Target: Histone acetyltransferase KAT6A, winged helix 1, GST fusion (KAT6A, Homo sapiens, UniProt Q92794, residues 1-85)
Notes: 8-mer, flanks averaged, mean of 2 arrays, mostly near background
Target sequence (chain): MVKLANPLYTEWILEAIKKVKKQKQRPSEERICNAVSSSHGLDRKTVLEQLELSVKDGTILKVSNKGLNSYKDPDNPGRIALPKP
| Strand | E-score |
| --- | --- |
| CGTTGCCC | 0.199 |
| CATTCAGC | -0.0646 |
| AACTGAGA | -0.154 |
| CAACGGGC | 0.2 |
| AGATGAAC | -0.141 |
| CGCAAACG | 0.208 |
| GGACGCCA | 0.0733 |
| GAGTCACC | -0.0406 |
| ACTAATTA | -0.147 |
| ACTAGTTC | -0.135 |
| GCAGAGAA | -0.0966 |
| TGCACCAA | -0.308 |
| AGAAATGG | -0.082 |
| CGGCAGCC | 0.329 |
| CAATCCTA | -0.122 |
| GCGATGAC | 0.217 |
| AGGTCATA | -0.048 |
| GCCATGCC | 0.277 |
| AAGCGCCA | 0.142 |
| GCGTTTAC | 0.26 |
| CAAAGCAG | -0.21 |
| ATGAGCGG | 0.153 |
| GGACCACA | -0.118 |
| ATTGCGCC | 0.274 |
| GATGTGCC | 0.0362 |

Set 4 — method: RNA Bind-n-Seq; form: RNA; matrix: in vitro; concentration: 200 nM; notes: whole 134-nt RNA, ends assumed; added: 150 mM KCl; relative to: input library; reading: higher = stronger binding
Target: Ras GTPase-activating protein-binding protein 1, full length (G3BP1, Homo sapiens, UniProt Q13283)
UniProt Q13283, sequence (whole entry, looked up): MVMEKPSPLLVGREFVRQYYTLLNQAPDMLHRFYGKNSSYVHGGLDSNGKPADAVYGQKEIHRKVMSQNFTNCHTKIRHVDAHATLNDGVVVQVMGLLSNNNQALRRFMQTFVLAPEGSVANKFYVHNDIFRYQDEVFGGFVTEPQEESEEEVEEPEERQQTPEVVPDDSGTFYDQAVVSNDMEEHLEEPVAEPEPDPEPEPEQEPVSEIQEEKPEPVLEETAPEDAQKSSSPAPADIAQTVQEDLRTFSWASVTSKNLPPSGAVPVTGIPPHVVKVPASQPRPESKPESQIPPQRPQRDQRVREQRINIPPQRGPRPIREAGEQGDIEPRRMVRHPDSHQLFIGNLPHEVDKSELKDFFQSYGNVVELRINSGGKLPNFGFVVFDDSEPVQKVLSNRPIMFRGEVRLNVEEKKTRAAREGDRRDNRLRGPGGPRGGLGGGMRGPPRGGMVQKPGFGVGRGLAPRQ
Constant ends, left off below: GGGAGUUCUACAGUCCGACGAUC … UGGAAUUCUCGGGUGUCAAGG
| Strand | log2 enrichment |
| --- | --- |
| UGGAUCAAGAGGAAGUAAAAAGAAUUACCAGUCACAGGCUGACAUUCCCAUUCGGUCUCCCUUUGGUAUUGUGAAAGCAUCCUGGCUACC | -0.11 |
| UGCUGUUAUCUGGAACUCCUACCUGUCCUGGAAGGCACAUCGGCUCUAAGCCUGCCUCACUCCAUCGUUUCCACCUUGCAGUGAUGCAGC | -1.37 |
| UAACUUUAGAGGAGGAUCUGAUGGAUAUGGCAGUGGACGUGGAUUUGUGGAUGGCUAUAAUGGGUAUGGAGGAGGACCUGGAGGUGGCAA | 0.414 |
| UUUGGUUAUGAACAGGAUUCGGAUUCACGUCUUGCCAACCAAUCGGGGGAGGAUCACUCCAGUGCCCAGGUCUCAGGAACCUCUGUCUUG | -0.399 |
| GCAGGAUGUAAAAACAAAUGGAAAUGCUUCGGAUAGUGGCAGGGGUGGGGGUUGCUAAGGAAAGGGUGGGAUGGGAGUGGGUAAAGAGUU | 1.17 |
| GUCCUGUGCUACACAUCGUAUGUACCGAAUCAAAUUUUUAAACCCCCCCAAAUUUAAAAAAGUAUUAUGUUACGCCGUUCGGAUCUGCAC | 0.0643 |
| CUCAAGUCCUGUGCUACACAUCGUAUGUACCGAAUCGGGAGGGAGGGAAAGGGAAAGUAUUAUGUUACGCCGUUCGGAUCUGCACUUCCA | 1.27 |
| UGGCCCUGGUGGCAUGCGGGGAGGAAGAGGUGGCCUCAUGGAUCGUGGUGGUCCCGGUGGAAGGUUCAGAGGUGGCCGUGGUGGAGACAG | 0.348 |
| UUCCUCAAGUCCUGUGCUACACAUCGUAUGUACCGAAUCGGAGGUGGUGGAAAGUAUUAUGUUACGCCGUUCGGAUCUGCACUUCCAGCA | -0.778 |
| CAAGUCCUGUGCUACACAUCGUAUGUACCGAAUCGGUUUUUUUGGAGGAAAAAGGAAAGUAUUAUGUUACGCCGUUCGGAUCUGCACUUC | -0.509 |

Set 5 — method: RNAcompete; form: RNA; matrix: in vitro; concentration: 20 nM; notes: 7-mer, probes averaged, single round; relative to: mean of 7-mers; reading: higher = stronger binding
Target: PABPC1L2, full length, GST fusion (mouse, UniProt A0ABA7IW68)
Target sequence (chain): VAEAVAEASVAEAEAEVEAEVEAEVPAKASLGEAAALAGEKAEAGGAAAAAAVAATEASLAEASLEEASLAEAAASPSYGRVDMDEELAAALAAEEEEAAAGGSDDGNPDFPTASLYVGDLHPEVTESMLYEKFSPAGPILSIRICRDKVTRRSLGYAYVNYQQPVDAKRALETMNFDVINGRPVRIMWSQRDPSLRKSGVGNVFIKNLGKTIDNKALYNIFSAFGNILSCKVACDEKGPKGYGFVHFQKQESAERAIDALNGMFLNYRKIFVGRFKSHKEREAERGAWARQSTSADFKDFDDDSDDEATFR
| Strand | 7-mer Z-score |
| --- | --- |
| GACUGCU | -0.222 |
| GCUUCCC | -0.407 |
| GACAUAC | -0.0373 |
| GAUCUGC | -0.271 |
| GAAAGAC | 0.804 |
| GGGACUG | 0.345 |
| CCGGCAC | -0.389 |
| GGGCGAG | 0.376 |
| CCUAGAA | 0.24 |
| AGGAUCA | 0.231 |
| AUCAUGU | -0.284 |
| GUUGUAC | -0.358 |
| AAAGUCU | 0.858 |
| AUAUCUU | -0.0953 |
| CUAUCAC | -0.204 |
| UCAGCCC | -0.362 |
| GCGACAU | 0.0315 |
| CACGGAU | -0.0174 |
| GAUACGC | -0.28 |
| GUUGCGC | -0.235 |
